Measured values from different studies.
Numbered parts are unrelated; each lists some results of a single study. Changes are numbered by the printed parent chain.

Block 1
Target: ABI1, truncated, D143A, DHFR fusion (Arabidopsis thaliana)
Technique: DHFR PCA, deep sequencing
Sample: yeast
Setting: methotrexate growth selection, single substitutions
With: (+)-ABA 0.0091 µM
Baseline: wild-type fitted maximum
Reading: higher = stronger binding
Parent: PYL1, truncated, DHFR fusion (Arabidopsis thaliana); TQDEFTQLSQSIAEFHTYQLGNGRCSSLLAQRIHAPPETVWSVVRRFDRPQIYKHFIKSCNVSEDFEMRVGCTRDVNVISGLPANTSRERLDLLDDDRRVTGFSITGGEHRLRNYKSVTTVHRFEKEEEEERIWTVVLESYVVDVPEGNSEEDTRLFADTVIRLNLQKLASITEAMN; partner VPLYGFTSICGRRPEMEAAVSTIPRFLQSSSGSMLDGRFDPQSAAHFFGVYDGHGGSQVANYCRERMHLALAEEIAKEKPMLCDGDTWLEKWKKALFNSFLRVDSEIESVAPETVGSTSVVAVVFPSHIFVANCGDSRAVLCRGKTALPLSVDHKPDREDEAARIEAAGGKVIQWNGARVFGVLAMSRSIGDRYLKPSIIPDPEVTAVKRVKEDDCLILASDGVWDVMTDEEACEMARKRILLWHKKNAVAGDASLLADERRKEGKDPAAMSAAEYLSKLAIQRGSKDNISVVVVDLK
Change	relative binding score
L91S	1.56%
K116M	-5.05%
H122K	1.12%
N177P	30.7%
E130N	28.1%
R99G	-7.87%
L93K	-1.37%
N165R	1.3%
E139R	0.578%
S150D	17.1%
Q2G	7.27%
W134K	1.5%
H122F	-11%
H122R	0.253%

Block 2
Target: RNA binding protein fox-1 homolog 2, RRM domain, GST-SBP tag (RBFOX2, Homo sapiens, UniProt O43251-10, residues 100-194)
Technique: RNA Bind-n-Seq
Molecule type: RNA
Sample: in vitro
Concentration: 365 nM
Setting: natural RNA segment, single round, ends assumed
Baseline: no-protein control
Reading: higher = stronger binding
All sequences stand within: GGGAGUUCUACAGUCCGACGAUC … UGGAAUUCUCGGGUGCCAA
Residues (chain): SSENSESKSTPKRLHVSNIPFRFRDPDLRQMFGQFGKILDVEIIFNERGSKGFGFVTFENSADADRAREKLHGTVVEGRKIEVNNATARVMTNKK
Sequence	RBNS enrichment (R)
AAAGAGUCCAAACAACUCAUCAUUUUCUUCUCUGCAUAUCUCACCACAAUUGUAGGAUUUUUUUUUCCAUGUACAUUCUUUGUAUAUGUUCAGAAGGGAUCAAAAUUGCC	0.278
UGUAACUCAGUGUGAAGCAAGUGUUUGUCCCUGCCCGCUAUCAGCCUACAGAGCAACAUUGUCAUUGGCCAAGGUCAGUCCUGAGGGAUGAUGAUUUCAAUGUCAGAAAA	0.26
UUUAGAUAGUAUGCUCUUGAUUGGAACAAAUUUUCAUUUUUUUAAAAAUCUGCUAAACAUUUGCAAUCUUACAUUUGUAUUUUAAUACCAGAGUGAGGUUUAGCUUUGUC	1.2
UGCCAGCAUCCUGUAGCGCGGAUAGCUGCUUCCAUGGCCACAGGCCUGAACCGGUGUGUAUUUGGGGAUCUGGAUGUGUAUGGCCACGGUGUGGCAGCUUUUGGAUUUUU	3.67
ACAGCCAUCUGGUUAUGUCUUAUUUUUUUCCUAAAAGAUAAUGUUUAUUUUUAAAAAGGAAGGAAGGAGCAAGUGAAGUUUCAUUCUGCUCCAGCGGUGGGGAAGCCGCU	0.257
ACUCAUUUCCACAGUUAGAUACGGAUGUGUUGAUGUAUUUCGUCUAGUUUAUUUGGCUCAGUCCACAGCUGCGUUGGAGUGGUGACUUUGGUAGCCCUUGAGCUCUAAUU	0.461
UGUGCUUUUUAAGAAUAUUUUUAGACUAUUUCUUUUUAUAGGGGCUUUGCUGAAUUCUAACAUUAAAUCACAGCCCAAAAUUUGAUGGACUAAUUAUUAUUUUAAAAUAU	0.854
AUAAAUUGAAAUUGUUAUGCUUUUGUAUUUCCAUUUCUUGCAAAUAAAUAUUUUUUCUUAAAUAGUAGAUGUUGCCCAGUCUUUAUAAUCUUGGUACUAAUUUGAAAAGC	0.678

Block 3
Target: Sal-like protein 4, full length isoform A (SALL4, Homo sapiens, UniProt Q9UJQ4, residues 1-1053)
Chain of UniProt Q9UJQ4 (whole entry, looked up): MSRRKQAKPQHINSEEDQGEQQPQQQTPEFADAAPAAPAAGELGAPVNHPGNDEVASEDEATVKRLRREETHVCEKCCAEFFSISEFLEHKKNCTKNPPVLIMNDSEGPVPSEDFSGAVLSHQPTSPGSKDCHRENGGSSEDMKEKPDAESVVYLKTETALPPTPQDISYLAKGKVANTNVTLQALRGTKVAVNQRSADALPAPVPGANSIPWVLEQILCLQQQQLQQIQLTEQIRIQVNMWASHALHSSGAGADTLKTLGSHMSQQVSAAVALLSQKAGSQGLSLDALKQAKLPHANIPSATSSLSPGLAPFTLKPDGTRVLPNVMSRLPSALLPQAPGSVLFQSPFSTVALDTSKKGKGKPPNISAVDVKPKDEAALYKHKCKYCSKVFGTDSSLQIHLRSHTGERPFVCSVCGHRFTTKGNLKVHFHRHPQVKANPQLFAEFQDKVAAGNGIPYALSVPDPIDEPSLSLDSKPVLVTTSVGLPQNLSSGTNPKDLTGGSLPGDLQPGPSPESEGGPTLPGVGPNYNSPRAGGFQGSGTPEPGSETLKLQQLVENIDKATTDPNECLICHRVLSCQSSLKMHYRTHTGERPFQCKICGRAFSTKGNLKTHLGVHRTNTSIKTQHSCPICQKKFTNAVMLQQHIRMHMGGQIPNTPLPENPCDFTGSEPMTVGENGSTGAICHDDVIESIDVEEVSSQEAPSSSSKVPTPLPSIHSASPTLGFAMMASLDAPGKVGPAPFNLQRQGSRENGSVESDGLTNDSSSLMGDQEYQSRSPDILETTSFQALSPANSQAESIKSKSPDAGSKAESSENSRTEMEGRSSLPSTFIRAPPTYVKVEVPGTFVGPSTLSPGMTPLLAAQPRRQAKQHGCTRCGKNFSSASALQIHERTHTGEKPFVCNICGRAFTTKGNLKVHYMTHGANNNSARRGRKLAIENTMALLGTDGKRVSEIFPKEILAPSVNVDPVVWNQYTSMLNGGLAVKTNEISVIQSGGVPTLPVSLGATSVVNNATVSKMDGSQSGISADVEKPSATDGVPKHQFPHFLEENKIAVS
Technique: universal PBM
Molecule type: double-stranded DNA, one strand shown
Sample: in vitro
Concentration: 600 nM
Setting: 8-mer, flanks averaged, mean of replicates
Reading: higher = stronger binding
Sequence	E-score
ATTGTTGC	0.152
CGCCCGCA	-0.267
GGTCGTAA	0.112
AAACCACG	-0.153
ACCGCGCG	-0.265
ACCATACC	-0.111
GCGAAGAA	0.0366
ACAGACGT	-0.0894
GGACACAA	0.0944
GATCGCCC	-0.314
GGCACACA	-0.145
ATGCAAGC	0.003
GCCCAACA	-0.253
CTTTGCTA	0.212
CAGAACGA	0.041
ACCACTGC	-0.211
GAGTGTAA	0.13
CAATGGAC	0.0721
CAGCTTTC	-0.202
CCCGCGCA	-0.281
CCATCCCC	-0.268
CATGGGAC	-0.192
AACCTTGG	-0.0517
GTGCCCAC	-0.292
CGTTACTC	-0.0643

Block 4
Target: CCNF, cyclin fold, Cln2 fusion (human)
Technique: yeast growth competition, sequencing
Sample: yeast
Setting: strong parent motif
Baseline: not given
Reading: higher = stronger binding
Parent: RB1 docking peptide (human); PKPLKKLRFDIEG
Change	normalised enrichment score
PKPLKPLRFDIEG [K6P]	-0.508
PCPLKKLRFDIEG [K2C]	1.8
PKPLKKLRFDDEG [I11D]	0.75
PKPLKKLRFDIYG [E12Y]	2.34
PKPLGKLRFDIEG [K5G]	0.282
PKPLKKLCFDIEG [R8C]	1.57
PKPLKKLRFDIEQ [G13Q]	1.2
PEPLKKLRFDIEG [K2E]	1.9
PKPLKKLLFDIEG [R8L]	1.95
PKPLKKLPFDIEG [R8P]	0.795
PKPLFKLRFDIEG [K5F]	0.535
PKPLPKLRFDIEG [K5P]	0.14
PKPLKILRFDIEG [K6I]	0.649
PKTLKKLRFDIEG [P3T]	0.498
PKPCKKLRFDIEG [L4C]	4.81
PKPLKKLRFDIVG [E12V]	0.805
PKPLKELRFDIEG [K6E]	-0.145
PKPLKKLRFDLEG [I11L]	2.71
PKPLKKLRFDIEM [G13M]	0.747
PKPLKKLRLDIEG [F9L]	0.649
PKPLKKERFDIEG [L7E]	0.322
PKPLKKLYFDIEG [R8Y]	1.66
PKPLKGLRFDIEG [K6G]	0.295
PKPLKKLRFDGEG [I11G]	1.27
PKPLKFLRFDIEG [K6F]	1.09

Single results of other studies
Molecule	target	test	system	setting	scale	endpoint	result
PhoQ, residues 284 288 289 292 302 303 SNSSNI	PhoP, residues 12 14 15 18 19 LWHVM (Escherichia coli, UniProt P23836)	Sort-seq, item: YFP reporter	E. coli	PhoQ-PhoP variant library, with: 10 µM Mg2+	baseline: high Mg2+ state, higher = stronger signaling	fold induction	5.18
